Experimental data collected from several papers.
Compare with care: the assays were run in different laboratories. ± marks the error that the study gave. Ends that are not written are not given here. No end group written: not given here. * marks the point of attachment. *: point of attachment.
B1: UGT1A9 (Homo sapiens, UniProt O60656); chain GKLLVVPMDGSHWFTMRSVVEKLILRGHEVVVVMPEVSWQLGRSLNCTVKTYSTSYTLEDLDREFKAFAHAQWKAQVRSIYSLLMGSYNDIFDLFFSNCRSLFKDKKLVEYLKESSFDAVFLDPFDNCGLIVAKYFSLPSVVFARGILCHYLEEGAQCPAPLSYVPRILLGFSDAMTFKERVRNHIMHLEEHLLCHRFFKNALEIASEILQTPVTEYDLYSHTSIWLLRTDFVLDYPKPVMPNMIFIGGINCHQGKPLPMEFEAYINASGEHGIVVFSLGSMVSEIPEKKAMAIADALGKIPQTVLWRYTGTRPSNLANNTILVKWLPQNDLLGHPMTRAFITHAGSHGVYESICNGVPMVMMPLFGDQMDNAKRMETKGAGVTLNVLEMTSEDLENALKAVINDKSYKENIMRLSSLHKDRPVEPLDLAVFWVEFVMRHKGAPHLRPAAHDLTWYQYHSLDVIGFLLAVVLTVAFITFKCCAYGYRKCLGKKGRVKKAHKSKTH
B2: ASB9 35-252 (Homo sapiens, UniProt Q96DX5); sequence looked up; chain SDWSPMHEAAIHGHQLSLRNLISQGWAVNIITADHVSPLHEACLGGHLSCVKILLKHGAQVNGVTADWHTPLFNACVSGSWDCVNLLLQHGASVQPESDLASPIHEAARRGHVECVNSLIAYGGNIDHKISHLGTPLYLACENQQRACVKKLLESGADVNQGKGQDSPLHAVARTASEELACLLMDFGADTQAKNAEGKRPVELVPPESPLAQLFLER

Substance	tested on	assay	test system	setting	endpoint	value
{FITC}-PAKKSEELVAEAHNLSTLLENAIQDTVREQDQSFTALDWSWLQTE (IKKβ 701-745 C716S (UniProt O14920); FITC label; FITC = O=C1OC2(c3ccc(O)cc3Oc3cc(O)ccc32)c2ccc(NC(=S)*)cc21; sequence looked up)	IKBKG C11A/C76A/C95A/C131A/C167A (Homo sapiens, UniProt Q9Y6K9)	fluorescence polarisation	peptide	oxidised, together with: H2O2 5%	Kd	0.26 µM
MGDSILSQAEIDALLN (fliM residues 1-16 (Escherichia coli))	cheY 2-129 E89Y (Escherichia coli, UniProt P0AE67)	fluorescence titration	peptide	pH 7.0, one-site model	Kd	160 µM
B1 (UGT1A9)	CCOC(=O)c1ccc(O)cc1	steady-state kinetics		pH 7.4, 37 °C	Vmax	0.00305 µmol/min/mg
MR1/B2M empty, chimera (Homo sapiens/Bos taurus)	TAPBPL luminal domain C94S (Homo sapiens)	SPR		pH 7.2, 25 °C, NaCl 50 mM	Kd	95.9 µM
5FAM-GCLVL (RHOA residues 189-193 (Homo sapiens); N-terminal 5-FAM; 5FAM = O=C1OC2(c3ccc(O)cc3Oc3cc(O)ccc32)c2ccc(C(=O)*)cc21)	RAP1GDS1 (Homo sapiens, UniProt P52306-1)	fluorescence polarization	peptide		Kd	61 ± 20 µM
GSLPPLDSEDLFQDLSHFQETWLAEAQVPDSDEQFVPDFHSE (ETV4 43-84 (Homo sapiens, UniProt P43268); sequence looked up)	MED25 ACID 391-553 (Homo sapiens, UniProt Q71SY5)	BLI			Kd	0.7 µM
B2 (ASB9 35-252)	CKB 1-381 (UniProt P12277)	SPR		pH 8.0, NaCl 200 mM, Langmuir model	Kd	0.0026 µM
PAKKSEELVAEAHNLSTLLENAIQDAVREQDQSFTALDWSWLQTE (IKBKB 701-745 C716S/T726A (Homo sapiens, UniProt O14920); sequence looked up)	IKBKG 2-419 C11A/C76A/C95A/C131A/C167A (Homo sapiens, UniProt Q9Y6K9)	competition with labelled peptide, fluorescence polarisation		pH 7.4	Kd	0.0069 µM
fus1 fragment (Schizosaccharomyces pombe) (sequence not shown)	ACTA1 filaments (UniProt P68135)	co-sedimentation			Kd	0.1 µM
AATKQTARKSTGGKAPRK (Histone H3.1 2-19 R2A (Homo sapiens, UniProt P68431); sequence looked up)	KDM5A 291-347 (Homo sapiens, UniProt P29375)	fluorescence polarisation	peptide		Kd	49 µM
PPP1CB (Homo sapiens, UniProt P62140)	SHOC2 (Homo sapiens, UniProt Q9UQ13)	BLI		steady state	Kd	11 µM
